Assay results gathered from unrelated publications.
A part holds a random share of what one study measured. Values joined by “and” are separate records of one study, mostly repeats; a detail may differ.
Chain of UniProt Q9UQ88 (whole entry, looked up): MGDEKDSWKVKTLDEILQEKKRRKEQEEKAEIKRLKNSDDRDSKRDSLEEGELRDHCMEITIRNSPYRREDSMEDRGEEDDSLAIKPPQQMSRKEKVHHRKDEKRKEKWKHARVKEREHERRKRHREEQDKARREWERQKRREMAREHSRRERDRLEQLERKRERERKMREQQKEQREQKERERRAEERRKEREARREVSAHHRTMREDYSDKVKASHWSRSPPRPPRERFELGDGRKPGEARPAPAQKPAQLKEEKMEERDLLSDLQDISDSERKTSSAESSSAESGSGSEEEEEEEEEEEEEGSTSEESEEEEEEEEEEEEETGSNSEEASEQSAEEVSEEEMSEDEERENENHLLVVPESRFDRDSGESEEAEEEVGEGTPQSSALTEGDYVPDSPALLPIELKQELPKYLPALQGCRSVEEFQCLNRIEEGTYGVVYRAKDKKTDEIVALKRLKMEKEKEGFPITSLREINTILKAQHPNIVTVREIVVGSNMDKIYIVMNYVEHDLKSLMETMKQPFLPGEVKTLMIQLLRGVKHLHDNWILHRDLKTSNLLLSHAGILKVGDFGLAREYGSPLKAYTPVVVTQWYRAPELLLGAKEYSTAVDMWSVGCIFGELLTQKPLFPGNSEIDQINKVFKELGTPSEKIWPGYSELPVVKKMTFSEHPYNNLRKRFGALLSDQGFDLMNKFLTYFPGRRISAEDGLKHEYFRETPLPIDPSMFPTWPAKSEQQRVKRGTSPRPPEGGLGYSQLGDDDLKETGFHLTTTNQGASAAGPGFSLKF
Chain of UniProt P49336 (whole entry, looked up): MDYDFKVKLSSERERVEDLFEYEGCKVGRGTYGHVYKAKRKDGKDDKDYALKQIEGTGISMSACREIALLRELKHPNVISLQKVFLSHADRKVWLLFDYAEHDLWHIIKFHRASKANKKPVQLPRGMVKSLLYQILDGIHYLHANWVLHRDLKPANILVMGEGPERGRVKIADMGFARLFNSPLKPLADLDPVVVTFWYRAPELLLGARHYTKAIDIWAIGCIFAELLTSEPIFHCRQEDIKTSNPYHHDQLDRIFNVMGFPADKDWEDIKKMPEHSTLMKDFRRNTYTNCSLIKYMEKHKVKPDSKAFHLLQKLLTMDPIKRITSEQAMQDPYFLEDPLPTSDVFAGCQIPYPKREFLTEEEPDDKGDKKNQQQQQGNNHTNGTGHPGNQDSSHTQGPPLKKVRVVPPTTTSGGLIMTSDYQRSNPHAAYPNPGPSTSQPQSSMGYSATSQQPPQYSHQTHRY
Chain of UniProt O94804 (whole entry, looked up): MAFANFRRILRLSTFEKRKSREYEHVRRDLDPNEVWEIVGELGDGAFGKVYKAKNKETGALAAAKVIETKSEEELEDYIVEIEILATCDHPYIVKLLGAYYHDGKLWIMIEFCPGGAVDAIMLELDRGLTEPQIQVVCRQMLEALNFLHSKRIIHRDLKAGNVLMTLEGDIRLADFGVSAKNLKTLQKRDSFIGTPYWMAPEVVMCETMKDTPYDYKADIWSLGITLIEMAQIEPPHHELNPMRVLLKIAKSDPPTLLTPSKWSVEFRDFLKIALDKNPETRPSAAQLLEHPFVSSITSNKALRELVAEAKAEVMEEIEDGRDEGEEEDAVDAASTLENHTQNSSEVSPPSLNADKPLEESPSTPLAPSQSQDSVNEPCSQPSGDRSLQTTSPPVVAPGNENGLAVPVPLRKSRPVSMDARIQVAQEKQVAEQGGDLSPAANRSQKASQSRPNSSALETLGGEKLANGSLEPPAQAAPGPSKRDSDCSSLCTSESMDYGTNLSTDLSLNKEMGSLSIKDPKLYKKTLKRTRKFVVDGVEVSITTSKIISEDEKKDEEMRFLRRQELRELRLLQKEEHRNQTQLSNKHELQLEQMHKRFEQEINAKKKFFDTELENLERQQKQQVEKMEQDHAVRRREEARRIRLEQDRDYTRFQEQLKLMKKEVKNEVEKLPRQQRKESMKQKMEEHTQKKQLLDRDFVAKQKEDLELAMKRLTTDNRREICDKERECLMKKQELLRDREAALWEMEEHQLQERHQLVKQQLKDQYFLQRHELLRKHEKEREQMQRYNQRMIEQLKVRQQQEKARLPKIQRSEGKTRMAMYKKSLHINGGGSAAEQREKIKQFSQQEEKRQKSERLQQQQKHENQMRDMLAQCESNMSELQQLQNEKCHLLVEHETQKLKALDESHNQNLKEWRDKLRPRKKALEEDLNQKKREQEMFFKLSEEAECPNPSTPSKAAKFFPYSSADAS
Chain of UniProt P36507 (whole entry, looked up): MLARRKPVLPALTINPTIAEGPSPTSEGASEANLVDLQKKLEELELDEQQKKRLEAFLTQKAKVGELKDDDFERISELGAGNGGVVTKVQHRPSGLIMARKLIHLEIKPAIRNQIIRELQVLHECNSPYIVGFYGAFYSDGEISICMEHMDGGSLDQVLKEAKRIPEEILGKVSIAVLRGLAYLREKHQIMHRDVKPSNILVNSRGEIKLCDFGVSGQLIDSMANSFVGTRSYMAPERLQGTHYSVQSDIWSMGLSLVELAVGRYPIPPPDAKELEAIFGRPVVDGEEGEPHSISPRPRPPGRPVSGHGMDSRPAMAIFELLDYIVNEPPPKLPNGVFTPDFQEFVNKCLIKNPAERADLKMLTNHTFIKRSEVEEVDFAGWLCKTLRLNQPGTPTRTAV
Chain of UniProt P54762 (whole entry, looked up): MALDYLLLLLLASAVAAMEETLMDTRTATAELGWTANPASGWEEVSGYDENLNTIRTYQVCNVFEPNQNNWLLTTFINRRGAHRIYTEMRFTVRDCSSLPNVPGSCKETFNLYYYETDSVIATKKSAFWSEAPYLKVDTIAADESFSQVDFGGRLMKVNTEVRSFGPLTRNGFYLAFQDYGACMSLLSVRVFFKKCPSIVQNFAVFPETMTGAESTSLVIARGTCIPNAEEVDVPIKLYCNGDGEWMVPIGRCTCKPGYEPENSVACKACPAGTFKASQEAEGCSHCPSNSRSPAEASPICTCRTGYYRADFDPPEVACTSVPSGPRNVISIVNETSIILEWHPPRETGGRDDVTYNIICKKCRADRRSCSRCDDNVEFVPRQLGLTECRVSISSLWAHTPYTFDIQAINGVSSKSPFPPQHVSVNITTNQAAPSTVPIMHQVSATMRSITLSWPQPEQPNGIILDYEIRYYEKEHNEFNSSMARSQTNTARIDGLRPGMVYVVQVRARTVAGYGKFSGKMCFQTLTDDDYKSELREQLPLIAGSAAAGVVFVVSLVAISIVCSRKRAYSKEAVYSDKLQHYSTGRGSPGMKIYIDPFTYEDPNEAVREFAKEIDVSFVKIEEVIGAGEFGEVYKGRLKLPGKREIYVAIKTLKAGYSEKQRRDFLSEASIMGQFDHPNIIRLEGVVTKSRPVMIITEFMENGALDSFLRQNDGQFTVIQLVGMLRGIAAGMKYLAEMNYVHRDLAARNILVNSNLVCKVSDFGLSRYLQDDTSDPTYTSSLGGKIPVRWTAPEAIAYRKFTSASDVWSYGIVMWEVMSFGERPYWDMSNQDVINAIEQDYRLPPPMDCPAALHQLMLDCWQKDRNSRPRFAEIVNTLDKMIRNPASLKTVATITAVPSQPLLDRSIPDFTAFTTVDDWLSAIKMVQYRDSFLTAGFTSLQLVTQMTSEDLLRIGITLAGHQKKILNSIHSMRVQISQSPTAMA
Chain of UniProt P61075 (whole entry, looked up): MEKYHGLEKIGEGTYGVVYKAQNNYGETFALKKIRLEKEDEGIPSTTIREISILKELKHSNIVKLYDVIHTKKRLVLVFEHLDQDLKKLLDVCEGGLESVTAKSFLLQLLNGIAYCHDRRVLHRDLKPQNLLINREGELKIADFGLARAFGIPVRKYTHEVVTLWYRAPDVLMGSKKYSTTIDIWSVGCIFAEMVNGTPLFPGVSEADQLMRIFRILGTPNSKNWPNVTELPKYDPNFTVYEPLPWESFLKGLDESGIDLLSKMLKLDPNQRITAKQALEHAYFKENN
Chain of UniProt Q96PN8 (whole entry, looked up): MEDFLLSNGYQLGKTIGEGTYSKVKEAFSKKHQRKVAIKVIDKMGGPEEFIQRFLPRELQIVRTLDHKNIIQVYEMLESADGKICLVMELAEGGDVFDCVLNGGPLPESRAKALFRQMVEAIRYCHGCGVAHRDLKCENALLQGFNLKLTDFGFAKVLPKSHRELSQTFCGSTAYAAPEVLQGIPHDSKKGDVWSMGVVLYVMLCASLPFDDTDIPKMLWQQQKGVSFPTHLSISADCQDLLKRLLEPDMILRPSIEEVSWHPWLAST

Series 1
SMILES: CC[C@@]1(c2cccc(-c3c(F)cncc3OC)c2)C2=C(Nc3n[nH]cc31)[C@H](F)C(C)(C)CC2=O (single isomer, unassigned)
Tested at: 1 µM
The remaining binding was 80% (Ephrin type-B receptor 1 (EPHB1, Homo sapiens, UniProt P54762); binding, competition with immobilised ligand).
Tyrosine-protein kinase Lyn (LYN, Homo sapiens, UniProt P07948); binding, competition with immobilised ligand — remaining binding: 100%.
Interleukin-1 receptor-associated kinase 3 (IRAK3, Homo sapiens, UniProt Q9Y616); binding, competition with immobilised ligand — remaining binding: 73%.
For Cyclin-dependent kinase 11A (CDK11A, Homo sapiens, UniProt Q9UQ88); kinase binding, KINOMEscan; relative to: DMSO control: remaining binding read 100%.
The remaining binding was 61% (Serine/threonine-protein kinase NIM1 (NIM1K, Homo sapiens, UniProt Q8IY84); binding, competition with immobilised ligand).
Non-receptor tyrosine-protein kinase TYK2, JH1 (TYK2, Homo sapiens, UniProt P29597); binding, competition with immobilised ligand — remaining binding: 66%.
For Cyclin-dependent kinase 8 (CDK8, Homo sapiens, UniProt P49336); kinase binding, KINOMEscan; relative to: DMSO control: remaining binding read 100%.
The remaining binding was 87% (Testis-specific serine/threonine-protein kinase 3 (TSSK3, Homo sapiens, UniProt Q96PN8); binding, competition with immobilised ligand).
It gave 61% for remaining binding (Dual serine/threonine and tyrosine protein kinase (DSTYK, Homo sapiens, UniProt Q6XUX3); binding, competition with immobilised ligand).
The remaining binding was 43% (Cyclin-dependent kinase 2 homolog (CRK2, Plasmodium falciparum, UniProt P61075); binding, competition with immobilised ligand).
For Serine/threonine-protein kinase 10 (STK10, Homo sapiens, UniProt O94804); binding, competition with immobilised ligand: remaining binding read 77%.
The remaining binding was 100% (Serine/threonine-protein kinase MRCK alpha (CDC42BPA, Homo sapiens, UniProt Q5VT25); binding, competition with immobilised ligand).
For Dual specificity mitogen-activated protein kinase kinase 6 (MAP2K6, Homo sapiens, UniProt P52564); kinase binding, KINOMEscan; relative to: DMSO control: remaining binding read 95%.
The remaining binding was 83% (Dual specificity mitogen-activated protein kinase kinase 2 (MAP2K2, Homo sapiens, UniProt P36507); binding, competition with immobilised ligand).

Series 2
Compound: CCN1/C(=C/C=C2\CCCC(/C=C/C3=[N+](CC)c4ccccc4C3(C)C)=C2NCCCCCCCCN2CCC(Nc3nc4ccccc4n3Cc3ccc(F)cc3)CC2)C(C)(C)c2ccccc21
Cell line: U-87 MG
Tested at: concentration not given
Relative to: DMSO
measured: ERO1B mRNA — “log2 fold change”: 1.64.
measured: CDCA3 mRNA — “log2 fold change”: -2.15.
measured: RRP12 mRNA — “log2 fold change”: 0.875.
For measured: CDCP1 mRNA: “log2 fold change” read -2.18.
The “log2 fold change” was 0.833 (measured: FOXO3B mRNA).
measured: SPHK1 mRNA — “log2 fold change”: 0.899.
measured: MEF2C mRNA — “log2 fold change”: 1.01.
The “log2 fold change” was -1.88 (measured: OASL mRNA).
It gave 1.06 for “log2 fold change” (measured: GPR176 mRNA).
measured: FANCL mRNA — “log2 fold change”: -0.932.
measured: C4orf46 mRNA — “log2 fold change”: -1.58.
The “log2 fold change” was -3.46 (measured: ADORA1 mRNA).
It gave -1.41 for “log2 fold change” (measured: SPACA6 mRNA).
For measured: H4C15 mRNA: “log2 fold change” read 2.03.
measured: RTN1 mRNA — “log2 fold change”: 1.06.
For measured: GDF5 mRNA: “log2 fold change” read -3.83.

Series 3
SMILES: CC(C)(C)NC(=O)c1ccc(OC/C(=C/F)CN)cc1
Target: Myeloperoxidase (MPO, Homo sapiens, UniProt P05164)
Chain of UniProt P05164 (whole entry, looked up): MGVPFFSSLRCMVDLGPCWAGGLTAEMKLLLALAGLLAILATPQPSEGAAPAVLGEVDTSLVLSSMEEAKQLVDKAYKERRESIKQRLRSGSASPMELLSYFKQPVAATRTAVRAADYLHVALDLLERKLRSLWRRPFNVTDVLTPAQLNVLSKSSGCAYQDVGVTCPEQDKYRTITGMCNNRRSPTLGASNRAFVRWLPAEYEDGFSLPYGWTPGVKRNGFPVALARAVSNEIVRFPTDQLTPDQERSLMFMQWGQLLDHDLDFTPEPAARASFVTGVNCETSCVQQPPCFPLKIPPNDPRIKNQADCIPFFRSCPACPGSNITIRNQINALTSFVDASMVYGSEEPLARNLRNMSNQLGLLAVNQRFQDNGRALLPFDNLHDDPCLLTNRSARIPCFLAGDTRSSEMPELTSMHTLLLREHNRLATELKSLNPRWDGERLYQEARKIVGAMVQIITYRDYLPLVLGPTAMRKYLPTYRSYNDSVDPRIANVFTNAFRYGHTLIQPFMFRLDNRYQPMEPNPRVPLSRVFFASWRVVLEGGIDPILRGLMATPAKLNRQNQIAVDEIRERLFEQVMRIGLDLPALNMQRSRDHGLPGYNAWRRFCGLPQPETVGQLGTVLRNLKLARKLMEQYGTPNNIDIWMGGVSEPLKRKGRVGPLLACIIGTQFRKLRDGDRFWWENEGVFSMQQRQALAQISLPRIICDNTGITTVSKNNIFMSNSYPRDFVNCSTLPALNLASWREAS
Read-out: enzyme activity
Action: inhibitor
Technique: fluorescence
1.111 µM — inhibition: -11.3% and -10% and -8.81%.
0.3704 µM — inhibition: -6.83% and -9.19% and -12.4%.
The inhibition was -9.85% and -17% and -8.13% (41.2 nM).

Series 4
SMILES: COCC1CC2C(CCC3C(O)CCC32)c2ccc(O)cc21 (stereo not shown)
The “mRNA level ratio” was 0.94 (PANC-1; microarray, measured: CDC25B; 25 µM; relative to: untreated).
It gave 1 for “mRNA level ratio” (A549; microarray, measured: GZMK; 100 µM; relative to: untreated).
The “mRNA level ratio” was 0.969 and 1.02 and 1 and 0.975 (SK-OV-3; DNA microarray, measured: KIF20A; 100 µM; relative to: untreated cells).
The “mRNA level ratio” was 0.915 (A549; microarray, measured: MCM6; 100 µM; relative to: untreated).
A549; DNA microarray, measured: MCM7; 100 µM; relative to: untreated cells — “mRNA level ratio”: 0.733.
It gave 0.805 and 0.811 and 0.817 and 0.861 and 0.852 for “mRNA level ratio” (A549; DNA microarray, measured: KIF20A; 100 µM; relative to: untreated cells).
A549; microarray, measured: OLIG2; 25 µM; relative to: untreated — “mRNA level ratio”: 1.
It gave 0.914 for “mRNA level ratio” (A549; microarray, measured: CDC25B; 25 µM; relative to: untreated).
It gave 1.06 and 1.07 and 1.01 and 1.04 for “mRNA level ratio” (A549; DNA microarray, measured: ACTB; 25 µM; relative to: untreated cells).
It gave 0.933 for “mRNA level ratio” (SK-OV-3; microarray, measured: MCM6; 100 µM; relative to: untreated).
It gave 1 for “mRNA level ratio” (A549; DNA microarray, measured: CCL8; 100 µM; relative to: untreated cells).
It gave 1.13 for “mRNA level ratio” (SK-OV-3; microarray, measured: CDC25B; 100 µM; relative to: untreated).
The “mRNA level ratio” was 1 (SK-OV-3; microarray, measured: OLIG2; 100 µM; relative to: untreated).
A549; microarray, measured: CCL11; 100 µM; relative to: untreated — “mRNA level ratio”: 268.
The “mRNA level ratio” was 0.806 and 0.852 and 0.811 and 0.789 and 0.832 (A549; DNA microarray, measured: ACTB; 100 µM; relative to: untreated cells).
SK-OV-3; microarray, measured: GZMK; 25 µM; relative to: untreated — “mRNA level ratio”: 1.23.
The “mRNA level ratio” was 1.1 (A549; microarray, measured: AURKA; 25 µM; relative to: untreated).
It gave 1.35 for “mRNA level ratio” (PANC-1; microarray, measured: SPC25; 25 µM; relative to: untreated).
The “mRNA level ratio” was 0.945 (A549; microarray, measured: AURKA; 100 µM; relative to: untreated).
For PANC-1; DNA microarray, measured: GINS1; 25 µM; relative to: untreated cells: “mRNA level ratio” read 1.39.
For PANC-1; DNA microarray, measured: GAPDH; 25 µM; relative to: untreated cells: “mRNA level ratio” read 0.62 and 0.617 and 0.619 and 0.612.
It gave 406 for “mRNA level ratio” (SK-OV-3; microarray, measured: CCL11; 100 µM; relative to: untreated).

A few entries again (series 2):
For measured: CDCP1 mRNA: “log2 fold change” read -2.18.
measured: ERO1B mRNA — “log2 fold change”: 1.64.
measured: CDCA3 mRNA — “log2 fold change”: -2.15.
measured: C4orf46 mRNA — “log2 fold change”: -1.58.
